{"data": "Measurements pooled from the literature", "note": "A part holds a random share of what one study measured. Positions count from the first letter of the parent shown."}
{"data": "Set 1", "target": "Histone acetyltransferase KAT6A, winged helix 2, GST fusion (KAT6A, Homo sapiens, UniProt Q92794, residues 85-181)", "method": "protein binding microarray", "molecule type": "double-stranded DNA, one strand shown", "sample": "in vitro", "tested at": "not given", "notes": "8-mer, flanks averaged, mean of 2 arrays, mostly near background", "reference": "not given", "reading": "higher = stronger binding", "Residues (chain)": "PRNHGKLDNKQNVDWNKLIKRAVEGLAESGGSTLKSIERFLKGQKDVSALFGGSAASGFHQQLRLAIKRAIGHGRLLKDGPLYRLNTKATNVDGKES"}
{"Strand": "GATCGTCC", "E-score": 0.0275}
{"Strand": "CATCACCG", "E-score": -0.106}
{"Strand": "CCGCTTAG", "E-score": -0.0812}
{"Strand": "ATGAGGAA", "E-score": -0.078}
{"Strand": "AAACCGTA", "E-score": -0.154}
{"Strand": "CGTGTGAC", "E-score": -0.051}
{"Strand": "AAAAGACA", "E-score": 0.0719}
{"Strand": "AGAGTTTC", "E-score": 0.0218}
{"data": "Set 2", "target": "ABI1, truncated, D143A, DHFR fusion (Arabidopsis thaliana)", "method": "DHFR PCA, deep sequencing", "sample": "yeast", "notes": "methotrexate growth selection, single substitutions", "with": "(+)-ABA 2500 µM", "reference": "wild-type fitted maximum", "reading": "higher = stronger binding", "parent": "PYL1, truncated, DHFR fusion (Arabidopsis thaliana); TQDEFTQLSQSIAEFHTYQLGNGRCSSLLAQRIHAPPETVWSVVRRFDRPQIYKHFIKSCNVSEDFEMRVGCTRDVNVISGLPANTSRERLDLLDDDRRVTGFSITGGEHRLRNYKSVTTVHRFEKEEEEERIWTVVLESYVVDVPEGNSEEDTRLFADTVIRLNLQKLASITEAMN; partner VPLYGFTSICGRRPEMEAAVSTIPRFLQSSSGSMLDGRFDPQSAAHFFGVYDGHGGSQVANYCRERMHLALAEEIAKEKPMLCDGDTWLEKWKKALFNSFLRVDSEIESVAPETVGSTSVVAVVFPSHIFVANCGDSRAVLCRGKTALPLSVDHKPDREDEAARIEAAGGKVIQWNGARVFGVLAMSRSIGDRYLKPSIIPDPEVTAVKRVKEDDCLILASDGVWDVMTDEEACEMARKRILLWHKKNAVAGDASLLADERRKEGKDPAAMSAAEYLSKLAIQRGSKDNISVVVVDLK"}
{"Change": "S27I", "relative binding score [%]": 5.17}
{"Change": "P146A", "relative binding score [%]": 96.8}
{"Change": "E152G", "relative binding score [%]": 95.1}
{"Change": "F56P", "relative binding score [%]": 20.6}
{"Change": "A84L", "relative binding score [%]": 8.82}
{"Change": "T154C", "relative binding score [%]": 98.1}
{"Change": "D3C", "relative binding score [%]": 101}
{"Change": "N85G", "relative binding score [%]": 95.4}
{"data": "Set 3", "target": "TAR DNA-binding protein 43, full length, His tag (TARDBP, Homo sapiens, UniProt Q13148, residues 1-414)", "method": "RNA Bind-n-Seq", "molecule type": "RNA", "sample": "in vitro", "tested at": "20 nM", "notes": "6-mer, flanks averaged, single round", "with": "150 mM LiCl", "reference": "input library", "reading": "higher = stronger binding"}
{"Strand": "UGCGUA", "6-mer enrichment (R)": 1.07}
{"Strand": "AGUUGA", "6-mer enrichment (R)": 0.983}
{"Strand": "CAAGUG", "6-mer enrichment (R)": 1.02}
{"Strand": "AUCUUA", "6-mer enrichment (R)": 0.879}
{"Strand": "ACCUCU", "6-mer enrichment (R)": 0.91}
{"Strand": "GAACGG", "6-mer enrichment (R)": 0.977}
{"Strand": "CGCCCG", "6-mer enrichment (R)": 0.973}
{"Strand": "GAACAU", "6-mer enrichment (R)": 0.864}
{"data": "Further values, each from its own experiment", "parent": "viral docking peptide; KGVKRKLFAEDSS"}
{"Change": "KGVKRKVFAEDSS [L7V]", "target": "CCNE1, cyclin fold, Cln2 fusion (human)", "test": "yeast growth competition, sequencing", "system": "yeast", "setting": "strong parent motif", "how to read": "reference: not given, higher = stronger binding", "measurement": "normalised enrichment score", "result": 0.725}
{"note": "A few entries again (set 3):"}
{"Strand": "ACCUCU", "6-mer enrichment (R)": 0.91}
{"Strand": "GAACGG", "6-mer enrichment (R)": 0.977}
